Experimental data collected from several papers.
Compare with care: the assays were run in different laboratories. ± marks the error that the study gave.
Cell line: Jurkat

With `O=C(N=P12CN3CN(CN(C3)C1)C2)c1cccc[c]1[Pd][Br].O=S(=O)([O-])c1cccc(P(c2cccc(S(=O)(=O)[O-])c2)c2cccc(S(=O)(=O)[O-])c2)c1.[Na+].[Na+].[Na+]` the IC50 was 322 ± 29 µM (cytotoxicity, MTT; 24 h, 1% DMSO).
For `O=C(N=P12CN3CN(CN(C3)C1)C2)c1cccc[c]1[Au]([Cl])[Cl]`, the IC50 was 9.5 ± 0.07 µM (cell viability, MTT; 24 h).
`CC[C@@H]1NC(=O)[C@H]([C@H](O)[C@H](C)Cc2nc3ccc(C(=O)c4ccccc4)cc3[nH]2)N(C)C(=O)[C@H](C(C)C)N(C)C(=O)[C@H](CC(C)C)N(C)C(=O)[C@H](CC(C)C)N(C)C(=O)[C@@H](C)NC(=O)[C@H](C)NC(=O)[C@H](CC(C)C)N(C)C(=O)[C@H](C(C)C)NC(=O)[C@H](CC(C)C)N(C)C(=O)CN(C)C1=O` gave an IC50 of 1.3 µM (reporter gene, inhibitor, NFAT luciferase reporter).
`O=C1c2cccc3cccc(c23)C12NC(Cc1ccc(O)cc1)C([N+](=O)[O-])C2c1ccc(Br)cc1` (stereo not drawn) has an IC50 of 65.7 µM (cell growth or viability, MTT; 24 h).
With `Cc1ccc(C(C)C)cc1.O=C(N=P(c1ccccc1)(c1ccccc1)c1ccccc1)c1ccccn1.[Cl-].[Cl-].[Ru+2]` the IC50 was 0.78 ± 0.08 µM (cell viability, MTT; 24 h).
`O=C(N=P12CN3CN(CN(C3)C1)C2)c1cccc[c]1[Pd].O=C(N=P12CN3CN(CN(C3)C1)C2)c1cccc[c]1[Pd]([Br])[Br]` has an IC50 of 8.1 ± 1.1 µM (cytotoxicity, MTT; 24 h, 1% DMSO).
For `O=C1c2cccc3cccc(c23)C12NC(Cc1ccc(O)cc1)C([N+](=O)[O-])C2c1ccccc1` (stereo not drawn), the IC50 was 29.4 µM (cell growth or viability, MTT; 48 h).
For `CCC(/C=C/C(=O)O)=C\C(=O)C[C@H](C)C[C@@H](C)CC[C@H](O)[C@H](C)C(=O)CC(O)[C@H](C)[C@@H](C)OC(=O)C[C@@H](O)C1=C(C)C(=O)OC1=O` (stereo partly drawn), the IC50 was 10 µM (cell growth or viability, MTS).
For `C1=CCCC=CCC1.F[P-](F)(F)(F)(F)F.[Pt+][c]1ccccc1P(=Nc1ccccc1)(c1ccccc1)c1ccccc1`, the IC50 was 0.6 µM (cell death).
`Cc1ccc(C2C([N+](=O)[O-])C(Cc3ccc(O)cc3)NC23C(=O)c2cccc4cccc3c24)cc1` (stereo not drawn) gave an IC50 of 37.8 µM (cell growth or viability, MTT; 48 h).
`C(=C/c1ccccc1)/c1ccccc1` gave an IC50 of 38 µM (cell growth or viability, ATP luminescence; 24 h).
The IC50 of `Cc1ccc(C(C)C)cc1.O=C(N=P12CN3CN(CN(C3)C1)C2)c1[c-]cccc1.[Cl-].[Ru+2]` is reported as 17.7 ± 7.5 µM (cell viability, MTT; 24 h).
`CC(C)C[C@@H]1NC(=O)[C@H](CC(C)C)NC(=O)[C@H](Cc2ccccc2)NC(=O)[C@@H]2CSSC[C@@H](C(=O)O)NC(=O)[C@H](CSSC[C@H](N)C(=O)N3CCC[C@H]3C(=O)N2)NC(=O)CNC1=O` has an IC50 of roughly 80 µM (cell adhesion; 45 min, together with: ICAM-1-Fc).
`Cc1ccc(C(C)C)cc1.[Cl-].[Cl-].[Fe+2].[Ru+2].c1cc[cH-]c1.c1ccc(P(=NCc2ccccn2)(c2ccccc2)[c-]2cccc2)cc1` gave an IC50 of 9.3 ± 0.07 µM (cell viability, MTT; 24 h).
`O=C1c2cccc3cccc(c23)C12NC(Cc1ccc(O)cc1)C([N+](=O)[O-])C2c1cccc([N+](=O)[O-])c1` (stereo not drawn) gave an IC50 of 66.5 µM (cell growth or viability, MTT; 24 h).

For quick reference, copied from above:
For `C1=CCCC=CCC1.F[P-](F)(F)(F)(F)F.[Pt+][c]1ccccc1P(=Nc1ccccc1)(c1ccccc1)c1ccccc1`, the IC50 was 0.6 µM (cell death).
`Cc1ccc(C2C([N+](=O)[O-])C(Cc3ccc(O)cc3)NC23C(=O)c2cccc4cccc3c24)cc1` (stereo not drawn) gave an IC50 of 37.8 µM (cell growth or viability, MTT; 48 h).
